Measurements pooled from the literature.
Parts stem from different laboratories: compare values within a part only.

Series 1 — technique: RNA Bind-n-Seq; molecule type: RNA; sample: in vitro; concentration: 365 nM; reference: no-protein control; direction: higher = stronger binding
Target: RNA binding protein fox-1 homolog 2, RRM domain, GST-SBP tag (RBFOX2, Homo sapiens, UniProt O43251-10, residues 100-194)
Notes: natural RNA segment, single round, ends assumed
All sequences stand within: GGGAGUUCUACAGUCCGACGAUC … UGGAAUUCUCGGGUGCCAA
Construct (chain): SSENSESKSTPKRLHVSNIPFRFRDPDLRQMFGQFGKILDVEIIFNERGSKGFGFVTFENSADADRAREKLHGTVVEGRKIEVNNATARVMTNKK
Strand	RBNS enrichment (R)
CAGUGUUGCCCAGAUGCAUUUUACAUCACUGUAAAGAGAUUACUUUUGUGGUUACUACCUGGCUUGGCUGGCCUUGCGGUUCACCAGAUUAAUUUACAAACUCCCCCACU	0.315
GAAUGGUCAUAAUGAGACAACAGCUAACACUGAAUGCUUGCUGUGUGUUUGGCACUCUGCUAGACGUUUUACUGGUAUUAACCGAUUUAAUCCUCACAAUAACGAAGUAU	9.18
UAGGAGCCUCUGUUCUUACCUAUUUCCAUAUACAGCUGCCUGGAGGAUGCUUUUUUUCCAGGACAGAUAGGUUCUGGAUCUCAGGGGUGAGAUAGGGGGCAGCCUUCAAU	0.394
ACAAGUGGGCACCUGCACUACCACUUUUUAGAGGAAAUUCACUCCCUCGUAAGCAUUGGAAGGUCAAAUUAUUUUGAAGUGAUUUUUUUAAAAAAAAGUCUUCUGUUUAU	0.575
UCAGAUUUACACUGGCACUGUGCCCUCUACCACUAUAUGCCAAAAACUGCUUCUGUAGUACCAUUUUGAUAUUAUGUCAGUUAUACAUAAUAUCUGACUAUUGUUUUCUA	0.338
AAUCAUUGAAUACUUCAAUCAGGAUAUUAUCUGCUUUACUUUACAAAUAAAACCAAAUCUUUUGUCAACAGGAUGAAACCCAUCUUAAAGGAAAGAAAAGGAAUUGGUGU	0.432
CCCCCUGCCGGACCAGGAGGCUCCCACAGACACGGCCUUCCACAGAGCGCGGUACAGCUGGGCCCAGCCCUGGAGAACCUCUCUUGUCCCAAGGAGCUUCGUGAACUGGC	0.282
CAGACUGGAAAAGUGAUGUAUUUUCAUAGUGACCUGUGUUUCACUUAAUGUUUCUUAGAGCCAAGUGUCUUUUAAACAUUAUUUUUUAUUUCUGAUUUCAUAAUUCAGAA	0.593

Series 2 — technique: aptamer microarray, sandwich; molecule type: DNA with 2'F-ANA; sample: in vitro; concentration: 200 nM; together with: Cy3 exosite-II aptamer, 400 nM; direction: higher = stronger binding; strand: GGTTGGTGTGGTTGG
Target: Prothrombin, mature alpha-thrombin (F2, Homo sapiens, UniProt P00734)
Notes: whole 15-mer aptamer, many near background
Modification	mean fluorescence intensity [a.u.]
2'F-ANA at 4 6 8 11 15	255
2'F-ANA at 2 3 4 6 8 13 15	375
2'F-ANA at 1 2 4 5 6 13 14 15	51.6
2'F-ANA at 1 3 5 8 9 10 11 13 14	46.9
2'F-ANA at 3 5 6 10 11 14	50.1
2'F-ANA at 1 5 9 10 11 12 13 14	44.3
2'F-ANA at 2 4 5 8 9 13 14	42.4
2'F-ANA at 2 5 6 11 13 14 15	49
2'F-ANA at 2 5 6 7 10 11 12 15	53.8
2'F-ANA at 1 4 6 8 9 11 12	195
2'F-ANA at 2 3 5 6 8 10 13	52.7
2'F-ANA at 1 3 5 6 9 11 13	52.5
2'F-ANA at 1 2 7 8 9 11	151
2'F-ANA at 3 5 6 7 12 14 15	62.8
2'F-ANA at 1 2 3 7 8 11 13 14	111
2'F-ANA at 1 4 7 9 11 12	213
2'F-ANA at 4 6 7 9 11 12	354
2'F-ANA at 1 2 3 4 5 6 7 11 13 15	50.4
2'F-ANA at 1 4 8 9 10 11 12 13 15	73.6
2'F-ANA at 2 3 7 12 13 15	1080
2'F-ANA at 4 5 8 9 10 15	55.5
2'F-ANA at 1 2 5 7 8 10 13 14 15	46.9
2'F-ANA at 1 2 4 6 7 8 10 11 13 14 15	50.9
2'F-ANA at 2 6 7 8 11 15	375

Series 3 — technique: RNA Bind-n-Seq; molecule type: RNA; sample: in vitro; concentration: not given; reference: input RNA pool; direction: higher = stronger binding
Target: RING finger protein unkempt homolog, zinc fingers 1-6, GST-SBP tag (UNK, Homo sapiens, UniProt Q9C0B0, residues 30-357)
Chain of UniProt Q9C0B0 (30-357, looked up): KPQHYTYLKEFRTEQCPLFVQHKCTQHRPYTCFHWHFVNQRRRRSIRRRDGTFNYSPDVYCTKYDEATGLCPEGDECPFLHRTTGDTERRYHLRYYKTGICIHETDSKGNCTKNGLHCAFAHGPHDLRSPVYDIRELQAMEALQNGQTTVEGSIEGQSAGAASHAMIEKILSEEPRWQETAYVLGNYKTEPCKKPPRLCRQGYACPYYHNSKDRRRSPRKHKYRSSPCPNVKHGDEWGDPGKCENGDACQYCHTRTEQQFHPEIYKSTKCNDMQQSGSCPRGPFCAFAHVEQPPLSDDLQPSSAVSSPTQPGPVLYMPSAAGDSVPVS
Notes: RNA with constant flanks, human and mouse sites, ends assumed
All sequences stand within: GGGAGUUCUACAGUCCGACGAUC … CAACAGAGGAUUGAGCAUCA
Strand	bound/input enrichment
ACUUUUGAGUCCCCAUGAUUUUCUUCAUACUCUGGUUCCCUUUCUACAACACAACCAUUGUACUUACCAUCACAGUAAUAUACCAAGUGUCCUAGUUGCCUAUGAAGGUUUGCCACUUCA	0.24 ratio
GGAGAGUCUCAGCCAGUGAAAAUGUUUGAUCGUCAUUCUAGCCUCGCAGGAUGCCAGAUCAUCAAUUACCGUACAGAUGCAAAGCAGAAAUGGUUGCUUCUCACUGGCAUAUCUGCACAG	0.148 ratio
GAUGCCAUUUAUGGACACCCCCUCUUCCCUCUCUUAGCACUGAUUUUUGAGAAAUGUGAAUUAGCUACUUGUACCCCCCGCGAGCCGGGGGUGGCGGGCGGGGACGUCUGCUCGUCAGAG	3.59 ratio
CCUGGGGCUUUGGUGCAGUGCUUGAGGCUACCAAAGUUUGCAGAGGAGGAGACUCUUUGUAUAGACUCUAUAACUCCUUGUGCUGAUGGAAUUCAUUUGUUGGUAGGACUGCGGACAUGC	0.124 ratio
GUAGAUGGAACUUUUCUAGUGUGGCAUGUAAAGUAUUUGGAUGAAUAUAACCCUGGAAUAUUUAGACAAGUUCAGGUUUCUUUUUCCUCUCGGAUUCCUGUUGCAUUUCCCUCUGGGGAC	0.576 ratio
GAAGACUUUGGCCAAGAAAAGAAAACUGAUGAUGUUGAAGCCAUGAGUUCUCAACCAGCACUGGCUCUGGAUGAAAGGAAAUUAGGAGAUGUUUCUCCCACACAAAUAGAUGUCAGUCAG	0.215 ratio
UCUGUUCAACCUUCCAGCUCCUUAAGUGCUAGGAUGAUGUCUGGAAGCAGAGGAAGUAGUUUAAAUGAUACCUAUCACUCAAGAGACUCUUCAUUUAGAUUGGAUUCUGAAUAUCAGUCU	0.149 ratio
CCAGGAGUGUAACUCUCUGAGUGAUGUGCUGGACACAUUUUCAAAAGCACCUACAUUUCCUGGUAGUAACUAUUUCUUAGCAAUGUGGAUAAUUGCCAAAAGGAUAUCUGAAGACAAGAG	0.998 ratio

Series 4 — technique: universal PBM; molecule type: double-stranded DNA, one strand shown; sample: in vitro; concentration: 600 nM; direction: higher = stronger binding
Target: Sal-like protein 4, full length isoform A (SALL4, Homo sapiens, UniProt Q9UJQ4, residues 1-1053)
Chain of UniProt Q9UJQ4 (whole entry, looked up): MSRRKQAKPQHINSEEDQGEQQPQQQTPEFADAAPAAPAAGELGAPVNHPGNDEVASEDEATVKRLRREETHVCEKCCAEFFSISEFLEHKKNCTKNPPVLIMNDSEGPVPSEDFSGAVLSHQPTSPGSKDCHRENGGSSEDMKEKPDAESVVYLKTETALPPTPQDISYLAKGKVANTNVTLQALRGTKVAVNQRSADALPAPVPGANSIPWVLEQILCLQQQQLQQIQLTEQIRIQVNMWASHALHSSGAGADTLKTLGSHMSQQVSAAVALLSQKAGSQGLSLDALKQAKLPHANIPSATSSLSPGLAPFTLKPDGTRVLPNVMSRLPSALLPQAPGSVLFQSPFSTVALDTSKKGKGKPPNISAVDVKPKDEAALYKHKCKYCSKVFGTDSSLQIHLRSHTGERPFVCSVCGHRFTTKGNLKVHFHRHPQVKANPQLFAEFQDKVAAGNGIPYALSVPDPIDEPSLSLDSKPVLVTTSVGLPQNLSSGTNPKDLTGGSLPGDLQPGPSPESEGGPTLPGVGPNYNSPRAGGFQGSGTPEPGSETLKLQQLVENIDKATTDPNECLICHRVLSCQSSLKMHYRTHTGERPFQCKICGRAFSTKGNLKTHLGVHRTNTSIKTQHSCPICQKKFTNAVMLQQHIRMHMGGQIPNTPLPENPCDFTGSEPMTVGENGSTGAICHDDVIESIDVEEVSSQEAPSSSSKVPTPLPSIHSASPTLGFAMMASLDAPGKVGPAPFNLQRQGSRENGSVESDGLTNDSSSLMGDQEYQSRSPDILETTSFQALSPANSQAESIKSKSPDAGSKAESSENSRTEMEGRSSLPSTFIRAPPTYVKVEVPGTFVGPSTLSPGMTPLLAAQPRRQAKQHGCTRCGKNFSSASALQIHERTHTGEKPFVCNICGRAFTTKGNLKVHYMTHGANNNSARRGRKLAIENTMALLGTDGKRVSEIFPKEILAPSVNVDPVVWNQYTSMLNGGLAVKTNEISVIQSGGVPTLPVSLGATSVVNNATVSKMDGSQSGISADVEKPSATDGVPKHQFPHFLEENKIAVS
Notes: 8-mer, flanks averaged, mean of replicates
Strand	E-score
AGTTCTCG	-0.0238
CTGCTAAC	-0.0395
ACGTTAGG	0.0528
CAATGCAC	0.109
AGAAGCGC	-0.129
CCGGTTTC	-0.279
GAACGCTA	-0.0824
AGTCGAAG	0.0222
CAATCTAG	0.204
GGTTTTGA	0.137
AAAGCCTT	-0.0208
AACGGTAT	0.0984
CAGTTACA	0.21
CCCTTGCG	-0.324
AGGGATAG	-0.0141
GTTCTTTA	0.116
AATACTCT	0.36
CCTGCCTC	-0.342
AATGTAGA	0.188
ATCATTTC	0.275
AGTCTCTA	0.0484
TCTTAAGA	0.149
CGCCTGCA	-0.269
GCCATGAC	-0.136
CGATCGTA	-0.105

Excerpt of the above (series 2):
Modification	mean fluorescence intensity [a.u.]
2'F-ANA at 1 4 7 9 11 12	213
2'F-ANA at 4 6 7 9 11 12	354
2'F-ANA at 1 2 3 4 5 6 7 11 13 15	50.4
2'F-ANA at 1 4 8 9 10 11 12 13 15	73.6
2'F-ANA at 2 3 7 12 13 15	1080
2'F-ANA at 4 5 8 9 10 15	55.5
2'F-ANA at 1 2 5 7 8 10 13 14 15	46.9
